Measured values gathered from unrelated publications.
Each line is one published result; not all experiments were run side by side. “And” joins repeats or separate records; there may be more than shown. Numbers after ± are the reported error.
Aminopeptidase N: Aminopeptidase N (Neisseria meningitidis, UniProt Q9JYV4)

CCCC[C@H](N)C(=O)Nc1ccc2c(CC(N)=O)cc(=O)oc2c1 has a Km of 52.8 ± 6 µM (Aminopeptidase N; enzyme activity, substrate; pH 7.5, 37 °C).
For O=C(Nc1cccnn1)N1CCC(=Cc2cccc(Oc3ccc(C(F)(F)F)cn3)c2)CC1, the ED50 was 4.3 µg/kg (Faah (Mus musculus, UniProt O08914); enzyme activity, inhibitor, ex vivo; mouse, brain; oral, 8 h).
For CC(=O)OC1C(C)C(OC2CC3OCOC3C(C)O2)C=COC2(C)Oc3c(C)c(O)c4c(c3C2=O)C(=O)C=C(NC(=O)C(C)=CC=CC(C(C)OC(=O)C(C)(C)CC(=O)O)C(O)C(C)C(O)C1C)C4=O (centres unmarked), the activity ratio was 10 (rpoB (Escherichia coli K-12, UniProt P0A8V2, D516V); inhibitor; reference: compound over rifampicin).
Under “relative potency per fucoside”, CC[C@H](C)[C@H](NC(=O)[C@H](CCCCN)NC(=O)[C@H](Cc1ccccc1)NC(=O)[C@H](CCCCNC(=O)[C@H](CC(C)C)NC(=O)[C@@H]1CCCN1C(=O)[C@H](CCCCN)NC(=O)C[C@@H]1O[C@@H](C)[C@@H](O)[C@@H](O)[C@@H]1O)NC(=O)[C@H](CC(C)C)NC(=O)[C@@H]1CCCN1C(=O)[C@H](CCCCN)NC(=O)C[C@@H]1O[C@@H](C)[C@@H](O)[C@@H](O)[C@@H]1O)C(N)=O is recorded as 3.1 (lecB (Pseudomonas aeruginosa, UniProt Q9HYN5); binding, isothermal titration calorimetry; divided by fucoside copies; reference: monovalent fucoside KD over ligand KD).
With CC1CN1c1cc(O)c2nc(N)sc2c1 (centres unmarked) the covalent engagement was 10% (Histone-lysine N-methyltransferase NSD2, SET domain (NSD2, Homo sapiens, UniProt O96028); mass spectrometry; 10 µM, 18 h, 32 °C, 1 µM protein).
Cc1cc(O)cc(C)c1CC(N)C(=O)NC1CCNc2c(C)cc(Cc3ccccc3)cc21 (centres unmarked) has a maximal stimulation of 71% (Oprd1 (Rattus norvegicus, UniProt P33533); GTPγS binding, agonist; C6 cells expressing DOR; reference: DPDPE at 10 µM).
O=C(O)COc1ccc(Cl)cc1 — result for “closed state stabilisation factor”: 20 (Chloride channel protein (Torpedo marmorata, UniProt P21564, C212S); chloride channel gating, inhibitor, kinetic model fit).
For CC(C)C[C@H](NC(=O)[C@H](CCC(=O)O)NC(=O)[C@H](C)NC(=O)[C@H](CCC(=O)O)NC(=O)[C@H](CCC(=O)O)NC(=O)[C@H](Cc1c[nH]cn1)NC(=O)[C@H](CCCNC(=N)N)NC(=O)[C@H](CCC(=O)O)NC(=O)[C@H](CC(N)=O)NC(=O)[C@H](CCCCN)NC(=O)[C@H](CC(C)C)NC(=O)[C@H](CCCNC(=N)N)NC(=O)[C@H](CCC(N)=O)NC(=O)[C@H](CC(C)C)NC(=O)[C@H](CCC(=O)O)NC(=O)[C@H](C)NC(=O)[C@H](CC(N)=O)NC(=O)[C@H](C)NC(=O)[C@@H](NC(=O)[C@H](CC(C)C)NC(=O)[C@H](CCCCN)NC(=O)[C@H](CCC(=O)O)NC(=O)[C@@H](NC(=O)[C@H](CO)NC(=O)CN)C(C)C)[C@@H](C)O)C(=O)N[C@@H](CCC(=O)O)C(=O)N[C@@H](CCCNC(=N)N)C(=O)N[C@@H](CC(C)C)C(=O)N[C@@H](CCCCN)C(=O)N[C@@H](CO)C(=O)N[C@@H](CCC(=O)O)C(=O)N[C@@H](Cc1ccc(O)cc1)C(=O)O, the kon was 36200 M⁻¹ s⁻¹ (Plasminogen (PLG, Homo sapiens, UniProt P00747, C188G/E240D/L256Y); binding, SPR; pH 7.4).
O=C(O)CCCC(=O)O gave an inhibition of 41.2 ± 1.71% (ACHE (Homo sapiens, UniProt P22303); enzyme activity, inhibitor; 62.5 µg/mL).
CCC(CC)OC1C=C(C(=O)OC(C)OC(=O)C(N)C(C)C)CC(NC(=N)N)C1NC(C)=O (mixture of isomers) has a Km of 2370 µM (BPHL (Homo sapiens, UniProt Q86WA6); enzyme activity, substrate; pH 7.4).
For CC(C)(C)CCN(Cc1ccc(F)cc1)c1nc(C#N)nc(N2CCOCC2)n1, the selectivity ratio was 2.4 and 2 (CPL (Toxoplasma gondii, UniProt Q6DMN0); enzyme activity, inhibitor; reference: human over Toxoplasma IC50).
CC(C)(C)OC(=O)N1CCC(C(=O)Oc2ccc(C(F)(F)F)cc2)CC1 has an inhibitory concentration of under 1 µM (clpP (Staphylococcus aureus, UniProt Q2G036); enzyme activity, inhibitor).
For CC[C@H](C)[C@H](NC(=O)[C@H](CC(N)=O)NC(=O)[C@H](CC(N)=O)NC(=O)[C@@H](N)CCCNC(N)=O)C(=O)N1C[C@@H](n2cc([C]34[CH]5[CH]6[CH]7[CH]3[Fe]6754389%10[CH]4[CH]3[CH]8[CH]9[CH]4%10)nn2)C[C@H]1C(=O)N[C@@H](Cc1c[nH]c2ccccc12)C(=O)N[C@@H](CO)C(N)=O (some centres unmarked), “binding entropy term -TΔS” read 3.6 ± 1.6 kcal/mol (env (Human immunodeficiency virus type 1 group M subtype B, UniProt P35961); ITC; concentration not given, pH 7.4, 25 °C).
CC(=O)NCC(=O)NCC(=O)N[C@@H](CCCCNP(=O)(O)O)C(=O)NCC(=O)NCC(N)=O — result for “first-order rate constant”: 0.000344 s⁻¹ (Phospholysine phosphohistidine inorganic pyrophosphate phosphatase (LHPP, Homo sapiens, UniProt Q9H008); substrate; 100 µM, pH 7.8).
CC(C)P(=[Se])(NP(=[Se])(C(C)C)C(C)C)C(C)C — result for “maximum emission wavelength”: 353 nm (Alpha-amylase (Bacillus subtilis, UniProt P00691); tryptophan fluorescence, fluorescence quenching; 0.20 mg/mL, 298 K).
CC[C@H](C)[C@H](NC(=O)[C@H](C)NC(=O)[C@H](CCCNC(=N)N)NC(=O)[C@@H](NC(=O)[C@H](CCCCN)NC(=O)[C@H](CC(N)=O)NC(=O)[C@H](CCCNC(=N)N)NC(=O)[C@@H](NC(=O)[C@@H](NC(=O)[C@H](CCC(=O)O)NC(=O)[C@H](CCCCN)NC(=O)[C@H](CCCNC(=N)N)NC(=O)[C@H](C)NC(=S)Nc1ccc2c(c1)C(=O)OC21c2ccc(O)cc2Oc2cc(O)ccc21)[C@@H](C)CC)[C@@H](C)CC)[C@@H](C)CC)C(=O)NCC(=O)N[C@@H](CCCCN)C(=O)N[C@@H](CCSC)C(=O)N[C@@H](C)C(=O)N[C@@H](CCCNC(=N)N)C(=O)N[C@H](C(=O)N[C@@H](Cc1ccccc1)C(=O)N[C@@H](CO)C(=O)N[C@H](C(=O)N[C@@H](CC(C)C)C(=O)N[C@@H](CCCNC(=N)N)C(=O)O)C(C)C)C(C)C gave a Kd ratio of about 50 fold (Calmodulin, C-terminal domain (CAM, Paramecium tetraurelia, UniProt P07463); binding, fluorescence anisotropy; Paramecium; reference: Ca2+-saturated over apo).
The Km of CC(=O)N[C@H]1[C@H]([C@H](O)[C@H](O)CO)O[C@@](OCCCNC(=O)OCc2ccccc2)(C(=O)O)C[C@@H]1O[C@H]1O[C@H](CO)[C@H](O)[C@H](O)[C@H]1O is reported as 180 ± 40 µM (siaD (Neisseria meningitidis, UniProt O33390); substrate; added: CMP-Neu5Ac).
For Nc1nc2c([C@@H]3O[C@@H]4COP(=O)(O)O[C@H]5[C@@H](O)[C@H](n6cnc7c(=O)[nH]c(N)nc76)O[C@@H]5COP(=O)(O)O[C@H]4[C@H]3O)scc2c(=O)[nH]1, “association rate constant k1” read 21000 ± 1000 M⁻¹ s⁻¹ (rocR (Pseudomonas aeruginosa, UniProt Q9HX69); substrate, HPLC; 10 µM, added: 100 nM enzyme).
CC(C)C[C@@H]1NC(=O)[C@H](CCCNC(=N)N)NC(=O)[C@H](CCCCN)NC(=O)[C@H](CC(=O)O)NC(=O)[C@H](CCCCN)NC(=O)[C@@H](CO)NC1=O — result for enzyme activity: “decreased” (Disintegrin and metalloproteinase domain-containing protein 8 (Homo sapiens, UniProt P78325); PANC-1 ADAM8-expressing; 1 µM, 24 h; reference: vehicle).
The inhibition of CC(=O)NC(Cc1ccc(Br)c(Cl)c1)C(=O)N[C@@H](C)C(=O)N1CCC[C@H]1C(=O)N1CCC[C@H]1C(=O)N[C@@H](CCC(=O)O)C(=O)N[C@@H](Cc1c[nH]cn1)C(=O)N[C@@H](CO)C(=O)N[C@H](C(=O)N[C@@H](C)C(N)=O)[C@@H](C)OP(=O)(O)O (some centres unmarked) is reported as 5.63% (ACVR1B (Homo sapiens, UniProt P36896); enzyme activity, inhibitor; 10 µM).
For NCCCC[C@H](N)C(=O)Nc1ccc2c(CC(N)=O)cc(=O)oc2c1, the Km was 88.7 ± 1.2 µM (Aminopeptidase N; enzyme activity, substrate; pH 7.5, 37 °C).
The activation V1/2 of CCN(Cc1ccccc1)C(=O)CCc1nc(CN2CCN(C(=O)Cc3ccc(OC)c(OC)c3)CC2)no1 is reported as -17 ± 1.16 mV (KCNQ4 (Homo sapiens, UniProt P56696); potassium current, whole-cell patch clamp; CHO, stable; 3 nM).
For CC(=O)N[C@@H](CC(C)C)C(=O)N[C@@H](CCC(=O)O)C(=O)N[C@@H](Cc1c[nH]cn1)C(=O)N[C@@H](CC(=O)O)C(=O)Nc1ccc2c(C)cc(=O)oc2c1, the Vmax was 1210 ± 40.9 RFU/min (Caspase-5 (CASP5, Homo sapiens, UniProt P51878); substrate cleavage, substrate, fluorogenic AMC release; enzyme 0.25 activity units/µL).

For quick reference, copied from above:
CC(C)C[C@@H]1NC(=O)[C@H](CCCNC(=N)N)NC(=O)[C@H](CCCCN)NC(=O)[C@H](CC(=O)O)NC(=O)[C@H](CCCCN)NC(=O)[C@@H](CO)NC1=O — result for enzyme activity: “decreased” (Disintegrin and metalloproteinase domain-containing protein 8 (Homo sapiens, UniProt P78325); PANC-1 ADAM8-expressing; 1 µM, 24 h; reference: vehicle).
